Measured values gathered from unrelated publications.
Protocols differ between the studies behind these lines.

Cc1cc(Nc2cc3ncccc3c(N[C@@H]3C[C@H]4CC[C@@H](C3)N4CCC#N)n2)n[nH]1 — subjects with contact dermatitis (healthy human; oral, 1000 mg single dose, 2 weeks): 0%
CNC(=O)c1ccc(-c2cnc3ncc(Cc4ccc5ncccc5c4)n3n2)cc1F — subjects with adverse event (healthy human subjects; oral, 400 mg, Nausea, all grades, all causality, together with: rifampicin 600 mg/day): 7.7%
Cc1cc(-c2nccc3c2ccn3CC(=O)Nc2ccc(-c3cnccn3)cn2)ccn1 — subjects with grade 1 TEAE (human; SAD part, single 20 mg dose): 16.7%
CC(C)(C(=O)N1CCOc2c(C#N)cncc2C1)C(F)F — subjects with adverse event (item: infections and infestations; human; oral, 20 mg once daily, 14 days, multiple ascending dose): 12.5%
C[C@@H](Oc1ccc(S(C)(=O)=O)cc1C(=O)N1C[C@@H]2C[C@]2(c2cc(C(F)(F)F)on2)C1)C(F)(F)F — subjects with gastrointestinal disorders (human; oral, 25 mg): 50%
CC(C)n1c(Nc2cccnc2)nc2cnc(Nc3ccc(N4CCN(C)CC4)cc3)nc21 — subjects with grade 3 CPK elevation (healthy male humans; oral, dose not given, drug interaction study, all arms): 4.8%
CN1CCN(c2cccc3c2CCN(C(=O)/C=C/c2c(-n4cnnn4)ccc(Cl)c2F)[C@@H]3C(=O)Nc2ccc(C(=O)O)cc2)C(=O)C1 — subjects with treatment-related adverse event (healthy human subjects; intravenous infusion, 25 mg/h, 2 h): 0%
C[C@H]1CN(C(=O)CC#N)[C@]12CCN(c1ncnc3[nH]ccc13)C2 — subjects with Dizziness (healthy human; oral, 12 mg single): 0%

Excerpt of the above:
C[C@H]1CN(C(=O)CC#N)[C@]12CCN(c1ncnc3[nH]ccc13)C2 — subjects with Dizziness (healthy human; oral, 12 mg single): 0%
